Results gathered from unrelated publications.
Numbered parts are unrelated; each lists some results of a single study.

Study 1 — method: protein binding microarray; molecule type: double-stranded DNA, one strand shown; medium: in vitro; tested at: not given; baseline: not given; direction: higher = stronger binding
Target: Histone acetyltransferase KAT6A, both winged helices, GST fusion (KAT6A, Homo sapiens, UniProt Q92794, residues 1-181)
Notes: 8-mer, flanks averaged, mean of 2 arrays, mostly near background
Construct (chain): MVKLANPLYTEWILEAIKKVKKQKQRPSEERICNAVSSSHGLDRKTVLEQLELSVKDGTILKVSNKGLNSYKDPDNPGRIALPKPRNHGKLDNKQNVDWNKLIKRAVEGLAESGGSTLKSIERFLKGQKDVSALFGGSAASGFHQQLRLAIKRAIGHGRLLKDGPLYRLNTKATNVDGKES
Strand	E-score
CAACATCA	-0.117
ACCCATCC	-0.152
ATAATTTC	0.0055
ACTAGATG	-0.148
ATGCCTTG	-0.172
ACTCCTCA	-0.189
CGTTCAAG	0.161
AAGACCTT	-0.102
CCTAGCAA	-0.115
AGACGGAT	0.155
ACTGCACG	0.0427
CCGGGTCA	0.169
GGGACGTA	0.0499
CAGCGCAC	0.129
CACACTGG	-0.234
CAAGAAAA	-0.0871
CGCTGGCA	0.0662
AACTCTGC	-0.161
TAAGATGA	-0.126
AGTGCTCC	0.0464
CACGTTTA	-0.0932
TGCTTTAA	-0.0453

Study 2 — method: competition protein-binding microarray; molecule type: double-stranded DNA, one strand shown; medium: in vitro; tested at: 2 µM; together with: Cbf1 competitor, 0.05 µM; direction: higher = stronger binding; all sequences stand within: … GTCTTGATTCGCTTGACGCTGCTG
Target: Phosphate system positive regulatory protein PHO4, full length, GST-tagged (PHO4, Saccharomyces cerevisiae, UniProt P07270, residues 1-312)
Notes: whole 60-bp probe, lowest competitor level
Target sequence (chain): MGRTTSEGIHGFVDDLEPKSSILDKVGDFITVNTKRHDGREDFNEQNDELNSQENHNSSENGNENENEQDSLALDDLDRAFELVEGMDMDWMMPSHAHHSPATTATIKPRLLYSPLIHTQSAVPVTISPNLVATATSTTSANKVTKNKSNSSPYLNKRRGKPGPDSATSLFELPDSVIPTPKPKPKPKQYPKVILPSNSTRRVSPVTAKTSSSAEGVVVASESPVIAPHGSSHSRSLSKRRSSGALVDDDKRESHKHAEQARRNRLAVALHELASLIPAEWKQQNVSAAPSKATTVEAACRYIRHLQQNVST
Strand	fluorescence intensity [a.u.]
TGCAGCACCCAGCTTCCCGTGTATCCATACCACCCT	6240
CTATATACATGTATACACGTGAGATAATAAATTATG	15400
CCGATTTTGTCCTTTAGCGTGACTCGGATTATACGC	4060
TAAAAAGGCATTGAACTCGTGGTGACGGGCATACCC	9620
ATCTTATTGATGTATTTCATATTATTGTTTTTTTTA	3990
AAAGCGGTAATTTGGACCGTGGGTGCAGATATCTAT	9140
CATACCCAACCTTGATATGTGGGTGAAGATATTTGT	4160
TGGATTTCAACGGGAAACGTGACTCGTACAGAATTT	10900
CATACCCAACCTTGCCTGGTGGGTGAAGATATTTGT	4590
TAAGGCCTCGGCTGGCACATGAGTCGCCGGAGGAGG	5880
CGTCCTAGTGATTGCTCAGTGGGTGCCATGAGGAAG	6520
AAAGCGGTAATTTGGCTTGTGGGTGCAGATATCTAT	4520
CTATTTCCGTTACCCGCCGTGCAATACAGCATCGCT	6550
TGTAAGTTGCAATCGCACGTGTGTTGTAGCCATGTA	14800
GTACTTGTTTCCGTTTCCGTGCCAGGCTAGATCCAT	4810
CGTCCTAGCGATTGATATGTGGGTGCCATGAGGAAG	6490
AGTTTCAGAGGTGGACACATGGGAGCCAACAGCTCA	9320
CCAGTGCTGCCCCGCCACATGCAATCGGGCCGTCGG	8120
AGCCCCGCGGGATCGCACGTATGAAGCCTGGATGAA	5330

Study 3 — method: RNA Bind-n-Seq; molecule type: RNA; medium: in vitro; tested at: 200 nM; notes: whole 134-nt RNA, ends assumed; together with: 150 mM LiCl; baseline: input library; direction: higher = stronger binding; all molecules: 7-deaza-guanosine replaces G
Target: Fragile X messenger ribonucleoprotein 1, C-terminal low-complexity region (Fmr1, Mus musculus, UniProt P35922)
All sequences stand within: GGGAGUUCUACAGUCCGACGAUC … UGGAAUUCUCGGGUGUCAAGG
Strand	log2 enrichment
GCAGGAAGUAAAAACAAAUGGAUAUGCUUCGGAUAGUGGCAGGGGUGGGGGUUGCUAAGGAAAGGGUGGGAUGGGAGUGGGUAAAGAGUU	1.81
CCUGUGCUACACAUCGUAUGUACCGAAUCGGGGAAAGGGGUUUUUGGGGAAAAAAAGGGGAAAGUAUUAUGUUACGCCGUUCGGAUCUGC	-0.136
ACCAUGCAGGUGGGCAUCUUUGGGAAGUGGGGCAAGGGGGGGAUAGGGAGGGGGGUAACACUUUGGGAACAGGUGGUCCCAGCUCGUUUC	0.995
CAAGUCCUGUGCUACACAUCGUAUGUACCGAAUCGGAAAGGUUUUUUUGGUUUGGAAAGUAUUAUGUUACGCCGUUCGGAUCUGCACUUC	-2.99
UGUGCUACACAUCGUAUGUACCGAAUCGGGAAAAAAAGGGAAAAAAAGGGGAAAAAAAGGGGAAAGUAUUAUGUUACGCCGUUCGGAUCU	0.581
CCUGUGCUACACAUCGUAUGUACCGAAUCGGGAAAAAAAGGGUUUUUUUGGGAAAAAGGGAAAGUAUUAUGUUACGCCGUUCGGAUCUGC	-2.36
AAGUCCUGUGCUACACAUCGUAUGUACCGAAUCGGAAAAAGGAAAAAGGUUUUUGGAAAGUAUUAUGUUACGCCGUUCGGAUCUGCACUU	-2.57
UCAAGUCCUGUGCUACACAUCGUAUGUACCGAAUCGGGGUUGGGGUUGGUUGGGAAAGUAUUAUGUUACGCCGUUCGGAUCUGCACUUCC	-0.52

Study 4 — method: universal PBM; molecule type: double-stranded DNA, one strand shown; medium: in vitro; tested at: not given; direction: higher = stronger binding
Target: Sal-like protein 4, full length isoform B (SALL4, Homo sapiens, UniProt Q9UJQ4-2, residues 1-616)
Notes: 8-mer, flanks averaged, mean of replicates
Target sequence (chain): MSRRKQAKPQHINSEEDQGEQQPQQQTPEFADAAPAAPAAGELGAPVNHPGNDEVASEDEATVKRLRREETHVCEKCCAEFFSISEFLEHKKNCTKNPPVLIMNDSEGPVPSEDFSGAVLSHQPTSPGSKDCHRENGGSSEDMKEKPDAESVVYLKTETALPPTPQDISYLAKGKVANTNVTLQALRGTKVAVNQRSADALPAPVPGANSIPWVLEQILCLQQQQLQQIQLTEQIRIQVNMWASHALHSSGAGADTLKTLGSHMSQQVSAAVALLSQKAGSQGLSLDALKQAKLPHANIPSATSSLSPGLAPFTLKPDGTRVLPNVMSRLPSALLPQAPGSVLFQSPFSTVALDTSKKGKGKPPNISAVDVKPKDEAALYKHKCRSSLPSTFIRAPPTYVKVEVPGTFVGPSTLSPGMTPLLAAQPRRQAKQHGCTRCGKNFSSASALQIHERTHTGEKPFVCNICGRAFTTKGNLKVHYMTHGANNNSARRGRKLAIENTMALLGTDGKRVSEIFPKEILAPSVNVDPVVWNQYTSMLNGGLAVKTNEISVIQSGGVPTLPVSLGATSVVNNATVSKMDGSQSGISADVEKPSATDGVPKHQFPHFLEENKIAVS
Strand	E-score
TAACCGAA	0.0551
AACCTGGA	-0.0987
TTCGTCAA	0.138
AAAATCTC	0.0999
ACGTGTGC	-0.0526
CCTGATGA	-0.0252
AAGCAGAG	0.0221
CAATGAAG	-0.0514
CCCATGCC	-0.357
ATGATCTC	0.0372
TGAACACA	0.15
GCGGGAGA	-0.258
CGCTCCTC	-0.317
AAAGAACT	0.0228
CCATCCTC	-0.157
CTGTTTTC	0.12
TCGGAGAA	-0.1
GCAATTAC	0.0792
CAGTCGAC	0.0267
AAGAATGT	0.0837
CGTGTGGA	-0.259

A few entries again (study 1):
Strand	E-score
CCGGGTCA	0.169
GGGACGTA	0.0499
CAGCGCAC	0.129
CACACTGG	-0.234
CAAGAAAA	-0.0871
CGCTGGCA	0.0662
AACTCTGC	-0.161
TAAGATGA	-0.126
AGTGCTCC	0.0464
CACGTTTA	-0.0932
TGCTTTAA	-0.0453
